Assay results from different studies.
Every numbered part comes from another study and shows a few of its results, in no order.

Series 1
Target: RNA binding protein fox-1 homolog 2, RRM domain, GST-SBP tag (RBFOX2, Homo sapiens, UniProt O43251-10, residues 100-194)
Technique: RNA Bind-n-Seq
Molecule type: RNA
Matrix: in vitro
Tested at: 365 nM
Notes: natural RNA segment, single round, ends assumed
Reference: no-protein control
Direction: higher = stronger binding
Quantity: RBNS enrichment (R)
Constant ends, left off below: GGGAGUUCUACAGUCCGACGAUC … UGGAAUUCUCGGGUGCCAA
Residues (chain): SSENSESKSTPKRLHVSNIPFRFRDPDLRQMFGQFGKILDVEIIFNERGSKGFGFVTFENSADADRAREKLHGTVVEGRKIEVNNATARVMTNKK
UCAGGUUUCUACAAAUAGGGUAAUUGUAAAUUUAAAGCAUUAGCAUUUAUUGGUGAAUAAUGUAUAUAUCCCCAUUCCAAGAAAUAUAAGUGAGUGAAGUUGAAAUAAAA: 0.518
CCCUAAACCUCAGGGCCAAUAUGGUGCUUCUAUCUAUCUCGAGUUGAUUUUAUAUAAAGAUUUGUGGGGAAAUAUCUUUAUAUUAAAAGCAGGUUAUUGGAAUAGAAUCC: 0.82
UAGACCUGCCCGCCUUCGUUCCUACAGUUAGAUCAUCUUGAGAGAUACUUAAAAGUAUCUCCUCCUUACUUGAAAGAAUGAUGUUCUACAUGCUAAUAUUUGUGAGACAU: 0.507
AUAAUUACAGGAAGUUUUUAUUUUUAAAACUGGAUCUGGGGUAUAUUCAUUUGCCCCAUCACCUCUGUCUAAAGGCCCAAGUCCUAGGGCUGCCAUGGUCACAAGCACAC: 0.293
UGCCUCAAAUUUGUAUAAGUGAUUGGCUAGUGAUUCUUGUUUUCAGAAGGGAGAGUGGUAUAGAUAGAAAAUGACAAAGAUGGCAAUAUACACUUAAUGUUGUUAUUGUA: 1.03
UCCAGCCUCCGACCCCUCGCCCCAUGAAGGAGCUGGCAGGUGGAAAUAAACAACAACUUUAUUAAAACACCCGAGGCAGCCUUUUGCUUCCCCCUCCUUAGCCCUGUUCC: 0.907
CCAUCACUGGAAUUUCCCACCGCUUUGUGAGCCGUGUCGUAUGACCUAGUAAACUUUGUACCAAUUCAAAGACCCGAGUGAUGCUUAAUGGCUGGGGACGGGGGGACAGG: 0.314
CUAGCAGUCACUUGAUCUCCGUGGCUUUGGUUUAAAAGACACACUUGUCCACAUAGGUUUAGAGAUAAGAGUUGGCUGGUCAACUUGAGCAUGUUACUGACAGAGGGGGU: 4.62
UUUUCUGGUUGUUAUAUAGAUGCCAAAAUAGCACUUUGAUAUUUGCAAAGUGCUUUAUGCUUUUUAAUAAUUGUUAGCUGUUUCUCACAUCAUUGUGAGUUAGAUCAGUA: 0.355
GAGCAAUUAUAAAAUCUUCAAUCAAUUGAACUUUUACAAAACCACUUGAGAAUUUCAUGAGCACUUUAAAAUCUGAACUUUCAAAGCUUGCUAUUAAAUCAUUUAGAAUG: 0.769
AGGCAGGAGAAUUGCUUGAACCGGGGAGACGGAGGUUGCAGUGAGCCGAGUUUGGGCCACUGCACUCUAGCCUGGCAACAGAGCAAGACUCCGUCUCAAAAAAAGGGCAA: 0.248
UCUGGGACAGGGGGCUGCCACUAAGCACACACACUCCUCCUAUUUUCCAGAAGUGAACAUUUCAUGUUUAGGUGCCGAAUGUGAAUCUGGGUGGGGAGAGCGGGAGCCCU: 0.482

Series 2
Target: Interferon regulatory factor 5, full length, phosphomimetic (IRF5, Homo sapiens, UniProt Q13568-2, residues 1-514, S451D/S453D/S456D/S462D)
Technique: protein-binding microarray
Molecule type: double-stranded DNA, one strand shown
Matrix: in vitro
Tested at: 940 nM top
Notes: 60-bp whole probe
Added: salmon DNA 0.4 mg/ml
Reference: random background probes
Direction: higher = stronger binding
Quantity: fitted relative affinity
Constant ends, left off below: GCCTAGCAC … GTCTTGATTCGCTTGACGCTGCTG
TCAATCGTCCCTTTGAGACTGTGCTAG: -0.105 z-score
GACGAGCTGAGTTTCGAGACGTGCTAG: 3.98 z-score
GACGGGCTGGGTTTCGGGACGTGCTAG: 2.91 z-score
GACGATTCCAGTTTCGAGTCGTGCTAG: 6.87 z-score
CTAGGTCTCGGTATCGGTTAGTGCTAG: 6.22 z-score
TGAGGTATCGGTTTCGGTTAGTGCTAG: 11.2 z-score
TTAGGTTCCCTATTCCTTTAGTGCTAG: 0.551 z-score
CCACATCTCTGTCCGTGCTCGTGCTAG: 0.708 z-score
GACGGACTGTGACTGGGGACGTGCTAG: -0.579 z-score
GACGGACTGCTTCTCCAGACGTGCTAG: -0.395 z-score
TCACAATTTGCTTTAGTACTGTGCTAG: 0.644 z-score
TTAGGACTGGACTATCGGTTTGTGCTA: -0.217 z-score
TTATGACTGCTTCTCCTTTAGTGCTAG: 0.442 z-score
TACGAACTGAGTATCGAGACGTGCTAG: 1.7 z-score
CTTGCTTTCCTACTGAAATAGTGCTAG: 0.0151 z-score
ATTGCTTCCTCTTTTTTGTTGTGCTAG: 1.54 z-score
TTAGGTTTCGGTCACGGTTAGTGCTAG: 15.1 z-score
GACGGTCTCCTTATTCTGACGTGCTAG: 0.503 z-score
GACGGGTTCGGTTTCGGGACGTGCTAG: 3.87 z-score
TTAGGTATAGGGACTGGGTTAGTGCTA: 0.197 z-score
TTACGTTTCCTTCTCCTTTAGTGCTAG: 2.18 z-score
GACGAACTGAGCCTGGAGACGTGCTAG: -0.759 z-score
TACGGTCTCGGTATCGGGACGTGCTAG: 4.48 z-score

Series 3
Target: RING finger protein unkempt homolog, zinc fingers 1-6, GST-SBP tag (UNK, Homo sapiens, UniProt Q9C0B0, residues 30-357)
UniProt Q9C0B0, sequence (30-357, looked up): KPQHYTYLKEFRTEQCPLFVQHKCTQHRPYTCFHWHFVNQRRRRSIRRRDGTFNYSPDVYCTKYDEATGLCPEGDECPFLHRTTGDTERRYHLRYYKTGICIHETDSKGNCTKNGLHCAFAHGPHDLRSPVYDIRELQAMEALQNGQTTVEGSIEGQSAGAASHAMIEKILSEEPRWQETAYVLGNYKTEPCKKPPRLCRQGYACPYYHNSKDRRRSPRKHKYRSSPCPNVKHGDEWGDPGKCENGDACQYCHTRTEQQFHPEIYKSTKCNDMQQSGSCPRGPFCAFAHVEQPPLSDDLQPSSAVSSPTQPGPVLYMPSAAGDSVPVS
Technique: RNA Bind-n-Seq
Molecule type: RNA
Matrix: in vitro
Tested at: not given
Notes: RNA with constant flanks, ends assumed
Reference: input RNA pool
Direction: higher = stronger binding
Quantity: bound/input enrichment
Constant ends, left off below: GGGAGUUCUACAGUCCGACGAUC … CAACAGAGGAUUGAGCAUCA
AAGGUGCUUGAACCAUAUCCAUCAAAAUUAAGCGGCCUGAAAGGGAAAAAUAUCUUCCCCGCCGCUGCUACACUCAGACCUGAGACUAUGUUUGGGCAGACAAAUUGUUGGGUUCGGCCU: 0.22 ratio
CUAACCCUUCAACCCCCUCGCCUCCUACUCUGAGACAAAAGAAAAAAUAUUAAAAAAAUGCACCGGCUUAACUCGCUGAUGAGUUAAUUGUUUUAUUUUUAAACUCUUUUUGGGUCCAGU: 0.368 ratio
UGCUCUUACUUGAUUUGCCAAAUGCCUCCUGCUUCUCGUUAUAGGACUGAGUGAGGUCCUCACCGCUCUGUGCUCUGGGCAGCUCUGAGCUCUCAGCCCUGUUGCUUUCAAUGUCAGUCA: 0.329 ratio
AUCAGAGACCAUGUAGUUCAACUUUCCACUCAAAGUAAGAUUUAUGAAUUAUUUAAAUGACCGUUGUUACUUGGAACAGCCACUUGAGAGGCUCUCUUGGUAUUGUUUGGAAUUGUUUUA: 1.13 ratio
CAGAAACUUUGUGAAAUUGAGAGGAUACAUUUUUUUCUAAGUAAGAAGAAAACCGAUGAACUCCGAAAUCUACACAAACUGCUUUACAACAGGCCAGGCACUGUGUCCUCAUUAAAGAAG: 0.261 ratio
UCAGAUAACGUCACUCGCGCUUGUAGCUUCAUCCGGGAGGCAGCAACGCAAGGAGCCAAAACCGUUUCUUUGCCGGAAUGCUUUAAUUCUCCAUAUGGAGCGAAAUAUUUUCCUGAAUAU: 0.106 ratio
CAGCAGUUGUAUUCUUUAUUAGCUUGGUAGAUCAUUUUCUCUCGCUCUUUUUUUUAAUACCCGCAACUUUCAUCCUUUGAAACGUGUGCUGAAAAAGAAGAAUCAGCAAAUACUACUGAA: 0.432 ratio
CACUCUUCUCCCUGUUUCUAUUCCCUGACCCCUGAGUAGCUGUAGUUUCCCCUGUAGCUUCCGCUAAAUAUCAAGCAACUCCACAAGCUUCUUAAGAAGCCAUGGACACCAAGUAGCACA: 0.799 ratio
UAUUCUUCUGGGAGCAGAAAAGGGUUUUUGUCAGGCUUGCUAGAUAACAUCAAACAAGAAUCCGCCAAAAACAAAGAGAUGAAAGAAAGUAUAAAAAAGUUCCGAGAUGAGGCCAAGAAG: 0.406 ratio
GCAGGAGCAUCAGUAGACCUAACAAUUUUCUCCCUUCAUUUAGCUGGAGUGUCAUCUAUUUCCGGUGCAAUUAAUUUUAUUACCACUAUUAUCAACAUGAAACCCCCAGCCAUAACACAG: 1.12 ratio
AACCUUCAACAGUAGAAGUUCUAGAAAAUAUAGAUAAGGAAAUUCAAGCAUUGGAAGAAUUCCGAGAAAAAAAUCAGAGAUUGCAAAAAUUAUGGGUUGGAAGAUUAAUUAUCUAUUCUU: 2.89 ratio

Series 4
Target: Histone acetyltransferase KAT6A, both winged helices, GST fusion (KAT6A, Homo sapiens, UniProt Q92794, residues 1-181)
Technique: protein binding microarray
Molecule type: double-stranded DNA, one strand shown
Matrix: in vitro
Tested at: not given
Notes: 8-mer, flanks averaged, mean of 2 arrays, mostly near background
Reference: not given
Direction: higher = stronger binding
Quantity: E-score
Construct (chain): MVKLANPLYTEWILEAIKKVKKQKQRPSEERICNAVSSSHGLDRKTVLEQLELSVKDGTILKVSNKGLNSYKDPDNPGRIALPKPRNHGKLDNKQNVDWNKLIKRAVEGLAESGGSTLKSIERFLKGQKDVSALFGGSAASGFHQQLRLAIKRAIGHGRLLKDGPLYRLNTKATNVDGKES
GGAAGCAA: -0.0548
GTAATGGA: -0.0503
CGGGGCTA: -0.0162
TAGCGGAA: 0.176
GCACGAAC: 0.0435
ACTGTACA: -0.0782
GAACAAAC: -0.0529
AAATCACC: 0.0468
CAAAACAA: -0.101
ATCGGTGA: -0.0641
GTGTGGAA: -0.0857
CGCTTCGC: 0.319
CGTGCCGA: 0.205
GGGAGTAC: -0.0283
CAATATAG: -0.102
ATCGCAAT: 0.00418
GTGCTAAA: -0.0634
AATCAACC: -0.0117

For quick reference, copied from above (series 2):
TGAGGTATCGGTTTCGGTTAGTGCTAG: 11.2 z-score
GACGGACTGTGACTGGGGACGTGCTAG: -0.579 z-score
GACGGTCTCCTTATTCTGACGTGCTAG: 0.503 z-score
